Results from different studies.
A part holds a random share of what one study measured. Positions count from the first letter of the parent shown.
UniProt O00506, sequence (whole entry, looked up): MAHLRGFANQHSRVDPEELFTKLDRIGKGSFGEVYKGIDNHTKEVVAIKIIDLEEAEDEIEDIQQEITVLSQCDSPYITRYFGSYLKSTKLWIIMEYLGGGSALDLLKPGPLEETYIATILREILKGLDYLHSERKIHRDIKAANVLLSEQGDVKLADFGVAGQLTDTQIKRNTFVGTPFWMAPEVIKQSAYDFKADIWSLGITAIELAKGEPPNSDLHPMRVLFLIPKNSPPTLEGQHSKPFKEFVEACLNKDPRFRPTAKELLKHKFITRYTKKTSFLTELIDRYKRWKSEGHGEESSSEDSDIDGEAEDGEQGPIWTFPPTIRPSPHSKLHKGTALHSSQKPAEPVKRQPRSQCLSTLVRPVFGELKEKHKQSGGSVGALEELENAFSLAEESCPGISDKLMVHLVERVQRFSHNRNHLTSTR

Study 1
Target: Protein C-ets-1, full length (ETS1, Homo sapiens, UniProt P14921, residues 1-441)
Method: protein-binding microarray
Molecule type: hairpin DNA
Medium: in vitro
Concentration: not given
Notes: whole hairpin DNA, median over replicate spots
Reference: not given
Reading: higher = stronger binding
Target sequence (chain): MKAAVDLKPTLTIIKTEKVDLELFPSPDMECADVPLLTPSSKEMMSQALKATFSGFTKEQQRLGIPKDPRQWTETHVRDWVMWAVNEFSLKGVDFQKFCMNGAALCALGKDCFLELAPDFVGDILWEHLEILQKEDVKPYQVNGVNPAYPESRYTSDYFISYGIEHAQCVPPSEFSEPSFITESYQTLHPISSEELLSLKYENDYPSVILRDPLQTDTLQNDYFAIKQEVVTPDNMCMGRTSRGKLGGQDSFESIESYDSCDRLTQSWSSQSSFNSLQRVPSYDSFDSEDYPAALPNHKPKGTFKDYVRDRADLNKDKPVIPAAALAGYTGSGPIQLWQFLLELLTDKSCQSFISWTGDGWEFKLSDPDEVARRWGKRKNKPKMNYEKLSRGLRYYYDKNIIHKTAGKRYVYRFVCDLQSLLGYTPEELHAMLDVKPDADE
Strand | median fluorescence
GAGGCCAGCCGGAACGTGCCTCCTGGCACGTTCCGGCTGGCCTCACACTC (5mC at 29) | 925 a.u.
GAGGCCTGCCGGAAGTTGCCTCCTGGCAACTTCCGGCAGGCCTCACACTC | 8780 a.u.
GAGGCCATTCGGAAGTTGCCTCCTGGCAACTTCCGAATGGCCTCACACTC | 2180 a.u.
GAGGCCAGTCGGAATTTGCCTCCTGGCAAATTCCGACTGGCCTCACACTC | 621 a.u.
GAGGCCACGCGGAAGTTGCCTCCTGGCAACTTCCGCGTGGCCTCACACTC (5mC at 36) | 5060 a.u.

Study 2
Target: CCNE2, cyclin fold, Cln2 fusion (human)
Method: yeast growth competition, sequencing
Medium: yeast
Notes: strong parent motif
Reference: not given
Reading: higher = stronger binding
Parent: RBL2 docking peptide (human); STTRRRLFVENDS; partner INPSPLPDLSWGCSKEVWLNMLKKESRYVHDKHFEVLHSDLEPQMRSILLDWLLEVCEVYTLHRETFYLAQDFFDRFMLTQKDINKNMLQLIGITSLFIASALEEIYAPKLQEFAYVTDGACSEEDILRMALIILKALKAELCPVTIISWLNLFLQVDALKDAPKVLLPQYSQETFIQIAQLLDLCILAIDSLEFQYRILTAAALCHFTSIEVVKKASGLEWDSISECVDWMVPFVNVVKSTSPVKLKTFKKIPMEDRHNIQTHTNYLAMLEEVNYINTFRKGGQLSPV
Change | normalised enrichment score
D12F | 2.48
T3L | 1.95
T3N | 0.000219
S1T | 4.09
E10Y | 2.21
N11L | 3.3
N11E | 4.88
T3S | 2.22

Study 3
Target: RNA binding protein fox-1 homolog 2, RRM domain, GST-SBP tag (RBFOX2, Homo sapiens, UniProt O43251-10, residues 100-194)
Method: RNA Bind-n-Seq
Molecule type: RNA
Medium: in vitro
Concentration: 365 nM
Notes: natural RNA segment, single round, ends assumed
Reference: no-protein control
Reading: higher = stronger binding
Shared flanks, not repeated: GGGAGUUCUACAGUCCGACGAUC … UGGAAUUCUCGGGUGCCAA
Construct (chain): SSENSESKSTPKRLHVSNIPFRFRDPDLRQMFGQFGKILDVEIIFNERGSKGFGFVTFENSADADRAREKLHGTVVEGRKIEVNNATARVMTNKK
Strand | RBNS enrichment (R)
GAAGGUCCUCAGAACAUCCUCCAGCAGUGAGUGGCCCAGCGAGCCCAGCAAGGGUGACUCACUAGACUCAGGAUGUAGCCUGAGCAGUGUCACCCAGAGUAGCGGCUGCC | 0.248
ACAGCUUUUAUUUUCAACUGCUUCCCAACUUGGUGGGGCCUCCUUUAAGGAUGAGCCAAUAGUAAGAAUGUGGCUGUAAUCAGCAGAGACCCCUCUGAGGGGUAUCUGUU | 0.32
CCUACCCAGAUGACCAAAAAGCCAGUGGAAACAGUUAAGCCCCUCCAUAUCAGGCUUACCAAGAAUAUGUGCCCUGUUUUUACCCGAGAUUUCUCCACUUGCCUCAAGGC | 0.668
UGUUAAUAUAAAGUGUUGUUUUAGCAUGUGGCCAGAUGAUGCUCUGUCAUCUUUAGAAAGUGAGAUAACCAAGGAAAUAAUUGAAGGAGUAUAGGGAGAUGGAUUAAGUU | 11.8
CCUGGCCCUCCACCUGCCUCCAGGCCACGAAAUGGGAAUUCCAGCACUAAGCCAGGCACCGGGCAGAAGCUGGGCCUUCCGCCUCCCUUGGAUGGGGUCAAGAGGCCAGG | 0.692
GGACCUCUGGUGAGAGGCCAGUGCCCUGCCCCACCCUGGAGCUUCAAAUAAAGAGCUUUUUACCCCCUCUUGCCUGGUGCUGCCCUGUUGAAGAUAGGGGAUUCGAGGUU | 0.394
UCUCUCUGAAUGUACUGUGUGAUGAUGCAUCAUGCAUGAACCUUCGGUCAGGGAUAUCAUUGGUGAAGUGAUUUCAAAAAGUAUUCAAAAUUUGAUAUGCUGUUUAGUCA | 0.223
GUGGUAAGGGUUGGGCCCCCAGCCUGUAGGGAACUUUCUGGACUCCCACUCUUUGAAUCGAUAUAGGCAUUUGGUCUCACUACUUGACCAUUCUCACCCUGUGAAACGUC | 1.57

Further values, each from its own experiment
Structure (SMILES) | target | read-out | action | concentration | reference | quantity | result
O=C1NC(=O)C(c2cn(CCCO)c3ncccc23)=C1c1cnccn1 | Serine/threonine-protein kinase 25 (STK25, Homo sapiens, UniProt O00506) | enzyme activity | inhibitor | 0.5 µM | control | remaining activity | 78.9%
